Measurements from different studies.
Protocols differ between the studies behind these lines. “And” joins repeats or separate records; there may be more than shown. Numbers after ± are the reported error.
Sodium- and chloride-dependent glycine transporter 2: Sodium- and chloride-dependent glycine transporter 2 (Homo sapiens, UniProt Q9Y345)
Gria1/Gria2: Glutamate receptor AMPA 1/2 (Gria1/Gria2, Rattus norvegicus, UniProt P19490+P19491)
IFIT3: Interferon-induced protein with tetratricopeptide repeats 3 (IFIT3, Homo sapiens, UniProt O14879)
TARDBP aggregated: TAR DNA-binding protein 43, aggregated (TARDBP, Homo sapiens, UniProt Q13148)
GAP50: Glideosome-associated protein 50 (GAP50, Plasmodium falciparum, UniProt Q8I2X3)

Structure (SMILES) | target | test | system | setting | scale | endpoint | value
CC1=CC(C)=[N+]2C1=C(CCCCN1CCC(O)(c3ccccc3)CC1)c1c(C)cc(C)n1[B-]2(F)F | Sodium- and chloride-dependent glycine transporter 2 | MS binding competition |  | 10 µM |  | remaining specific binding | 64.7 ± 1.4%
C#CCOC(=O)[C@@]1(C)C=C(C(=O)OC(C)(C)C)C(=O)CC1 | Mitogen-activated protein kinase 1 (MAPK1, Homo sapiens, UniProt P28482) | enzyme activity, D-SENSOR |  | 400 µM, mean of replicates |  | normalized kinase activity | 0.444
COC(=O)Cc1cc2c(cc1C(=O)c1ccc(Cl)cc1Cl)OCO2 | Gria1/Gria2 | glutamate-evoked current, whole-cell patch clamp | HEK-293T | concentration not given, weighted tau, 500 ms pulse, added: glutamate |  | desensitization time constant | 4.3 ± 0.3 ms
CC(=O)c1cnc(NS(=O)(=O)c2ccc(C(F)(F)F)c(Cl)c2)nc1 | 17-beta-hydroxysteroid dehydrogenase 13 (Homo sapiens, UniProt Q7Z5P4) | enzyme activity | human hepatocytes, scramble siRNA, culture medium | 120 h | relative to: scramble siRNA control | oxidized product ratio | 0.448 and 0.447 and 0.409 and 0.483
OC[C@H]1c2[nH]cnc2[C@H](O)[C@@H](O)[C@@H]1O | bglA (Thermotoga maritima, UniProt Q08638) | ITC |  | pH 5.8, 25 °C |  | ΔH | -3.13 ± 0.143 kcal/mol
COC(=O)C1CNCCC1SCCC=C(c1ccccc1)c1ccccc1 (stereo not drawn) | Sodium- and chloride-dependent glycine transporter 2 | MS binding competition |  | 10 µM |  | remaining specific binding | 81.7 ± 9%
C=CC(=O)N1CC2(CCN(c3nc(OC4CCN(CCCOC)CC4)nc4c(OCC(F)(F)F)c(-c5c(C)ccc6[nH]ncc56)c(C5CC5)cc34)CC2)C1 | GTPase KRas, GDP-bound (KRAS, Homo sapiens, UniProt P01116, G13D) | SPR |  |  |  | dissociation rate constant koff | 0.0378 ± 0.0042 s⁻¹
CC(=O)NCCCC[C@H](NC(=O)[C@H](C)NC(=O)[C@H](CCCNC(=N)N)NC(=O)[C@H](C)NC(=O)[C@H](CCCCN)NC(=O)CNC(=O)CNC(=O)[C@H](CCC(N)=O)NC(=O)[C@H](CCCCN)NC(=O)CNC(=O)[C@H](CCCNC(=N)N)NC(=O)CNC(=O)[C@@H](N)CO)C(=O)N[C@@H](C)C(=O)N[C@@H](CCCCN)C(=O)N[C@@H](CO)C(=O)N[C@@H](CCCNC(=N)N)C(=O)N[C@@H](CO)C(=O)N[C@@H](CO)C(=O)O | YEATS domain-containing protein 4, YEATS domain (Homo sapiens, UniProt O95619) | isothermal titration calorimetry |  | concentration not given, pH 7.6, 25 °C, added: histone peptide |  | binding stoichiometry | 1
COC(=O)Cc1cc2c(cc1C(=O)c1cccc(Br)c1)OCO2 | Gria1/Gria2 | glutamate-evoked current, whole-cell patch clamp | HEK-293T | concentration not given, pH 7.4, holding potential -60 mV, added: 10 mM glutamate |  | current amplitude | 237 ± 12 pA
O=C(N[C@@H](Cc1ccc(OCCCCC2CCNCC2)cc1)C(=O)O)c1nc2ccccc2o1.O=C(O)C(F)(F)F | Integrin alpha-IIb/beta-3 (Homo sapiens, UniProt P05106+P08514) | inhibitor, flow cytometry | washed platelets, human | 30 nM, added: ADP and Alexa647-fibrinogen | relative to: untreated | fibrinogen binding | 0.798 and 1.01 and 0.893
CC(=O)C12NC(C)(C)CC1(C)C(=O)C1=C2c2c(c3c4n2C(C)(C)CC2=C4C4(CC(C)(C)NC(C)(C4)C2=O)CC3(C)C)C(=O)C(C)(C)N1 (single isomer, unassigned; (-)) | TRPM3 (Homo sapiens, UniProt Q9HCF6) |  | HEK293T | 10 µM |  | agonist activity | 1.53 ± 0.01%
Cc1cc(-c2ccccc2)cc(C(=O)NNS(=O)(=O)c2ccccc2)c1F | Histone acetyltransferase KAT5 (KAT5, Homo sapiens, UniProt Q92993) | SPR |  | 0.21 µM | higher = more binding | SPR binding response | 0.107 RU
Fc1c(F)c(F)c(C[N+]2=C3SCCN3C[C@@H]2c2ccccc2)c(F)c1F | acetylcholine-gated chloride channel (Haemonchus contortus, UniProt A0A219KWM7) | ion current, agonist, two-electrode voltage clamp | Haemonchus contortus, Xenopus oocytes | 500 µM | relative to: acetylcholine | Emax | 5%
CCCCCCCCCCCCC/C=C/C=O | IFIT3 | competitive isoTOP-ABPP | proteome, soluble, MDA-MB-231 | 100 µM, 60 min, added: iodoacetamide probe | relative to: DMSO over compound-treated, higher = stronger cysteine blockade | isoTOP-ABPP competition ratio | 1.3
CC[C@H](C)[C@@H]1NC(=O)[C@H](C(C)C)NC(=O)[C@H](C(C)C)NC(=O)[C@H](CC(C)C)NC(=O)C[C@@H](C(=O)N[C@@H](Cc2c[nH]c3ccccc23)C(=O)N[C@@H](CC(N)=O)C(=O)N[C@@H](C)C(=O)N2CCC[C@H]2C(=O)NCC(=O)N[C@@H](Cc2ccccc2)C(=O)N[C@@H](Cc2ccccc2)C(=O)O)NC(=O)[C@H](C)NC(=O)[C@H](CCC(N)=O)NC(=O)[C@H](C(C)C)NC1=O | Toll-like receptor 4 (TLR4, Homo sapiens, UniProt O00206) | antagonist, ELISA |  | 1 µg/mL, added: LPS | relative to: DMSO control, lower means stronger antagonism | OD450 in LPS binding ELISA | 0.884 a.u. and 0.865 a.u. and 0.845 a.u. and 0.826 a.u.
COC(=O)Cc1cc2c(cc1C(=O)c1cccc(I)c1)OCO2 | Gria1/Gria2 | glutamate-evoked current, whole-cell patch clamp | HEK-293T | concentration not given, weighted tau, 500 ms pulse, added: glutamate |  | desensitization time constant | 5.3 ± 0.4 ms
CC1=NN(c2ccccc2F)C(=O)/C1=N\Nc1ccc(S(N)(=O)=O)cc1 | Alpha-amylase (Bos taurus, UniProt Q3MHH8) | enzyme activity, inhibitor, glucose oxidase |  | 50 µg/mL, added: dextrin |  | inhibition | 11.9%
C[C@@H](Nc1nc(N[C@H](C)C(F)(F)F)nc(-c2cccc(Cl)n2)n1)C(F)(F)F | Isocitrate dehydrogenase [NADP] cytoplasmic (IDH1, Homo sapiens, UniProt O75874, R132S) |  |  | 1 h preincubation |  | maximum inhibition | 96.7 ± 8.8%
CC(C)Oc1cc(Cl)ccc1CNc1cc(-c2ccccc2)nc2ncnn12 | G-protein coupled receptor 3 (GPR3, Homo sapiens, UniProt P46089, I200W) | cAMP GloSensor | human cells | 1 µM | higher is more cAMP | cAMP luminescence | 34200 a.u. and 41300 a.u. and 31600 a.u. and 48700 a.u.
O=C(O)Cc1cc2c(cc1C(=O)c1cccc(I)c1)OCO2 | Gria1/Gria2 | whole-cell patch clamp | HEK-293T | concentration not given, added: glutamate |  | desensitization time constant | 4 ± 0.3 ms

Structure (SMILES) | target | test | system | setting | scale | endpoint | value
O=C1c2sc(-c3ccc(N4CCC(F)C4)nc3F)nc2CCN1c1cccnc1 (stereo not drawn) | TARDBP aggregated | radioligand binding | human, FTLD-TDP type C sarkosyl-insoluble extract | 200 nM |  | specific binding | 0.899 nM and 1.03 nM and 1.22 nM
CCCCCC(O)/C=C/C=O (stereo not drawn) | T-complex protein 1 subunit eta (Homo sapiens, UniProt Q99832) | competitive isoTOP-ABPP, refers to: CCT7 cysteine peptide | Ramos soluble proteome | 100 µM, added: iodoacetamide probe | relative to: DMSO over compound-treated, higher = stronger cysteine blockade | isoTOP-ABPP competition ratio | 1.6
CCc1cc(O)cc2c(/C=N/NC(=N)NCCc3ccc(Cl)cc3)c[nH]c12 | Relaxin-3 receptor 1 (RXFP3, Homo sapiens, UniProt Q9NSD7, S159L) |  | HEK-293T |  | relative to: wild type | Emax | 80.6 ± 10.5%
Cc1nc2ccc(F)cc2c2c1C1(C)CC2c2cc(F)ccc2N1 (stereo not drawn) | GAP50 | surface plasmon resonance |  |  |  | kon | 784 M⁻¹ s⁻¹
N#CSCCCCCCOc1ccc2c(-c3ccccc3)cc(=O)oc2c1 | Carbonic anhydrase 12 (CA12, Homo sapiens, UniProt O43570) | stopped-flow CO2 hydration |  |  | relative to: Ki CA II over Ki CA XII | selectivity ratio | > 794
C=CC(=O)N1CCCC(n2c(=O)c3ncccc3n(Cc3ccc(Oc4ccccc4)cc3)c2=O)C1 (stereo not drawn) | Septin-1 (SEPTIN1, Homo sapiens, UniProt Q8WYJ6) | thermal proteome profiling, refers to: SEPTIN1 |  | unit not given | relative to: vehicle | melting temperature shift | -4.49
N=C(N)NCCS(=O)(=O)O | Sodium- and chloride-dependent taurine transporter (SLC6A6, Homo sapiens, UniProt P31641, G62A) | binding, microscale thermophoresis |  | 244 nM, room temperature, added: 50 nM labelled protein | higher = more binding | normalised MST signal | 0.0107
O=C(O)Cc1cc2c(cc1C(=O)c1cccc(Br)c1)OCO2 | Gria1/Gria2 | whole-cell patch clamp | HEK-293T | concentration not given, added: glutamate |  | deactivation time constant | 6.5 ± 0.4 ms
O=C1C[C@H](c2nc(-c3ccc(F)c4cn[nH]c34)no2)CCCN1c1ccc(F)cc1 (racemic) | Cannabinoid receptor 2 (CNR2, Homo sapiens, UniProt P34972, F281A) | GloSensor cAMP |  | concentration not given, CB2 mutant | relative to: mutant over wild type | fold change | 27.6
CCOC(=O)c1ccc2c(c1)C1CC(C)(N2)c2c(C)nc3ccc(C(=O)OCC)cc3c21 (single isomer, unassigned) | GAP50 | differential scanning fluorimetry |  |  |  | ΔTm | -6 °C
CC(C)[C@@H]1NC(=O)[C@H](Cc2ccccc2)NC(=O)CSC[C@@H](C(N)=O)NC(=O)[C@H](CCC(=O)O)NC(=O)[C@H](CO)NC(=O)[C@H](Cc2c[nH]c3cccc(Cl)c23)NC(=O)[C@H](C2CCCCC2)NC(=O)[C@H](C(C)C)NC(=O)[C@H](Cc2ccc(O)cc2)NC(=O)[C@H](CC(=O)O)NC(=O)[C@H](Cc2c[nH]c3ccccc23)NC(=O)[C@H](Cc2ccc(N)nc2)NC(=O)[C@H](Cc2c[nH]c3ccc(Cl)cc23)NC(=O)[C@H](CCC(=O)O)NC1=O | Interleukin-1 receptor-like 2 (IL1RL2, Homo sapiens, UniProt Q9HB29) | reporter gene (SEAP), inhibitor, HEK-Blue IL-36R reporter | HEK-Blue IL-36R cells | 0.005 µM, 6 h, added: IL-36β 30 ng/mL |  | remaining activity | 92.9%
Cn1c(=O)n(C2CCC(=O)NC2=O)c2ccc(C3CCN(CC(=O)Nc4cccc(CS(=O)(=O)N5CC[C@H](Nc6cccc(-c7sc(C(=O)O)c(OCC(=O)O)c7Cl)c6)CC5(C)C)c4)CC3)cc21 (stereo partly drawn) | Tyrosine-protein phosphatase non-receptor type 2 (PTPN2, Homo sapiens, UniProt P17706) | protein degradation, degrader, HiBiT | B16-F10 cells | 24 h |  | Emax | 3.45%
COC(=O)[C@@]1(C)C=C(C(=O)Nc2cccc(C(=O)Nc3ccc(Nc4nccc(-c5cccnc5)n4)c(C)c3)c2)C(=O)CC1 | Mitogen-activated protein kinase 8 (MAPK8, Homo sapiens, UniProt P45983) | enzyme activity, inhibitor |  | 0.02032 µM, 6 h, unit not given, added: GSH 10 mM pre-incubation | relative to: vehicle | remaining activity | 0.529
COCCOc1cc2ncnc(Nc3ccc(Oc4ccccc4)cc3)c2cc1OCCOC | SMUG1 (Homo sapiens, UniProt Q53HV7) | enzyme activity, activator, fluorescence |  | 20 µM | relative to: control | activity | 700 ± 200%
CN(Cc1cc(C2CC2)on1)C(=O)c1cccc(-c2ccc3c(c2)CCO3)c1 | Acetyl-coenzyme A synthetase 2 (ACS2, Candida albicans, UniProt Q8NJN3) | enzyme activity, inhibitor, coupled pyrophosphate |  | 125 µM | higher is more activity | reaction rate | 0.00235 a.u.
CCCCCC=CC=C1C(=O)C=CC1CC=CCCCC(=O)O (stereo not drawn) | IFIT3 | competitive isoTOP-ABPP | proteome, soluble, MDA-MB-231 | 100 µM, 60 min, added: iodoacetamide probe | relative to: DMSO over compound-treated, higher = stronger cysteine blockade | isoTOP-ABPP competition ratio | 7.7
O[C@H]1[C@H](O)[C@@H](Cl)C=C[C@@H]1O | Lysosomal acid glucosylceramidase (GBA1, Homo sapiens, UniProt P04062) | covalent inhibitor |  | concentration not given, pH 5.2, 25 °C |  | reactivation rate | 0.00021 ± 1e-05 s⁻¹
O=C1c2sc(-c3ccc(N4CCC(CO)CC4)nc3F)nc2CCN1c1cccnc1 | TARDBP aggregated | radioligand binding | human, FTLD-TDP type A insoluble extract | 26.56 nM |  | specific binding | 3.29 nM and 4.17 nM and 3.96 nM and 4.01 nM
CC1=CC(C)=[N+]2C1=C(CCCN1CCCCC1)c1c(C)cc(C)n1[B-]2(F)F | Sodium- and chloride-dependent glycine transporter 2 | MS binding competition |  | 10 µM |  | remaining specific binding | 89.5 ± 8.2%

Some of these lines once more:
Structure (SMILES) | target | test | system | setting | scale | endpoint | value
COC(=O)C1CNCCC1SCCC=C(c1ccccc1)c1ccccc1 (stereo not drawn) | Sodium- and chloride-dependent glycine transporter 2 | MS binding competition |  | 10 µM |  | remaining specific binding | 81.7 ± 9%
CCc1cc(O)cc2c(/C=N/NC(=N)NCCc3ccc(Cl)cc3)c[nH]c12 | Relaxin-3 receptor 1 (RXFP3, Homo sapiens, UniProt Q9NSD7, S159L) |  | HEK-293T |  | relative to: wild type | Emax | 80.6 ± 10.5%
